Published values of several laboratories.
Compare with care: the assays were run in different laboratories.

SMILES | assay | system | conditions | measurement | result
CSc1cc(C)[nH]c(=O)c1CN1CCc2c(Cl)c3c(c(C)c2C1=O)OC(C)(C1CCC(N(C)C)CC1)O3 (stereo not shown) | – | mouse, KARPAS-422 xenograft | oral, 25 mg/kg once daily | time to tumour regression | ~5 days
CC1(C)C(=CC=C2C[N+](C)(C)CC(C=CC3=[N+](CCCCCC(=O)O)c4ccccc4C3(C)C)=C2Cl)N(CCCCCC(=O)O)c2ccccc21 | NIR imaging | C57BL/6 mouse, E0771 tumour | intravenous, 25 nmol | time of high tumour contrast | 4 h
CC(C)(C)ONc1nc(Nc2ccnc(C(F)(F)F)c2)nc(-c2cccc(C(F)(F)F)n2)n1 | refers to: 2-hydroxyglutarate | mouse U-87 MG IDH2 R140Q xenograft | oral, 18.05 and 54.14 mg/kg | time to tumour 2-HG reduction | ≤ 0.5 h
CC(C)(O)c1ccc(N2Cc3c(ccnc3-c3ccc(F)cc3OCC(F)(F)F)C2=O)cc1 | refers to: glucosylceramide | mouse, plasma | oral, 10 mg/kg | time of maximal reduction | 8 h
CC1(C)C(/C=C/C2=C(Cl)C(=C/C=C3/N(CCCCCC(=O)O)c4ccccc4C3(C)C)/C[N+](C)(C)C2)=[N+](CCCCCC(=O)O)c2ccccc21 | – | mouse, NIT-1 pancreatic tumour | intravenous, 25 nmol, observed over 8 h | time to peak tumour-to-background | 8 h
C=CC(=O)Nc1cccc(-c2cnc3[nH]cc(C(=O)NC(C)(C)C)c3n2)c1 | – | mouse, NK-S1 xenograft, tumour | ip, 50 mg/kg | time to phospho-STAT3 decrease | 8 h
Cc1cccc(C)c1Nc1nn(C)c2nc(Nc3ccc4c(c3)CN(CC3CCN(c5ccc6c(c5)C(=O)N(C5CCC(=O)NC5=O)C6=O)CC3)CC4)ncc12 (stereo not shown) | – | mouse, TMD8 xenograft | oral, 10 or 30 mg/kg daily, 3 weeks | time to complete regression | ≤ 15 days
C=CC(=O)Nc1ccc(F)c(-c2ncnc3[nH]cc(C(=O)OCC)c23)c1 | – | CD4 T-cell blasts, mouse | dose not given, added at second wave onset, added: IL-2 | time to pSTAT5 and pS6 reduction | ≤ 30 min
Cc1cc(NC(=O)[C@H](O)c2cc(F)cc(F)c2)ccc1-c1cnc(N)c(C(=O)NC(C)C)c1 | refers to: phospho-PERK | mouse 786-O xenograft, tumour | 30 mg/kg | time to pPERK baseline | ≤ 8 h
CC(C)c1cnc(-c2cc(Cl)ccc2F)cc1Nc1ccncc1C(=O)NC(CO)CO | – | mouse, 4T1 tumour, tumour | dose not given, twice daily dosing | time to pSMAD2 inhibition | ≤ 1 h

A few entries again:
SMILES | assay | system | conditions | measurement | result
CC1(C)C(=CC=C2C[N+](C)(C)CC(C=CC3=[N+](CCCCCC(=O)O)c4ccccc4C3(C)C)=C2Cl)N(CCCCCC(=O)O)c2ccccc21 | NIR imaging | C57BL/6 mouse, E0771 tumour | intravenous, 25 nmol | time of high tumour contrast | 4 h
